Measured values pooled from the literature.
Every numbered part comes from another study and shows a few of its results, in no order. “And” joins repeats or separate records; there may be more than shown.

Sample 1
SMILES: CC(C)C[C@@H]1NC(=O)[C@@H](N(C)C(=O)[C@@H](NC(=O)[C@@H]2C[C@@H](F)CN2C(=O)C2(C(F)(F)F)CC(F)(F)C2)C2CC2)CCCCCCCN(C)C(=O)[C@H](Cc2cc(Cl)cnc2OC2CC2)N(C)C1=O
Route: oral
| test system | setting | tumour volume |
| --- | --- | --- |
| NSG mice, sample B SCLC PDX | 100 mg/kg twice daily, day 22 | 310 mm3 and 276 mm3 and 364 mm3 and 221 mm3 and 209 mm3 |
| mouse, sample A SCLC PDX | 100 mg/kg three times daily, day 25 | 214 mm3 and 216 mm3 and 211 mm3 and 377 mm3 |
| NSG mice, sample B SCLC PDX | 100 mg/kg twice daily, day 19 | 229 mm3 and 226 mm3 and 231 mm3 and 300 mm3 |
| NSG mice, sample B SCLC PDX | 100 mg/kg twice daily, day 8 | 296 mm3 and 189 mm3 and 185 mm3 and 263 mm3 and 221 mm3 |

Sample 2
Structure (SMILES): Cc1c(F)cc2[nH]ncc2c1-c1c(C2CC2)cc2c(N3C[C@@H]4C[C@H]3CN4)nc(OC3CCOCC3)nc2c1OCc1ccccc1
Effect on: KRAS-RAF interaction
Mode: inhibitor
Method: TR-FRET
With: SOS-mediated nucleotide exchange
KRAS G12D with RAF: GTPase KRas, with RAF (KRAS, Homo sapiens, UniProt P01116, G12D)
KRAS with RAF: GTPase KRas, with RAF (KRAS, Homo sapiens, UniProt P01116)
| target | setting | inhibition |
| --- | --- | --- |
| KRAS G12D with RAF | 1 µM | 3.71% and 2.21% |
| KRAS G12D with RAF | 300 nM | -5.92% and -3.1% |
| KRAS G12D with RAF | 10 nM | 0.533% and -5.66% |
| KRAS with RAF | 100 nM | -4.49% and -3.73% |
| KRAS with RAF | 30 nM | -4.44% and -4.84% |
| KRAS G12D with RAF | 3 µM | 32.3% and 21.2% |
| KRAS with RAF | 10 µM | 5.16% and 15.3% |

Sample 3
Cell line: P493B lymphoma cells
Matrix: human plasma
Tested at: concentration not given
Setting: plasma fraction of partition
| Structure (SMILES) | DON concentration [nmol/mL] |
| --- | --- |
| COCCOCCOC(=O)[C@H](CCC(=O)C=[N+]=[N-])NC(=O)[C@H](Cc1c[nH]c2ccccc12)NC(C)=O | 0.18 |
| COCCOCCOC(=O)[C@H](CCC(=O)C=[N+]=[N-])NC(=O)[C@H](Cc1c[nH]c2ccccc12)NC(=O)CN(C)C | 0.18 |
| CC(C)OC(=O)[C@H](CCC(=O)C=[N+]=[N-])NC(=O)[C@H](Cc1c[nH]c2ccccc12)NC(=O)CN1CCN(C)CC1 | 0.03 |
| [2H]C([2H])([2H])OC(=O)[C@H](CCC(=O)C=[N+]=[N-])NC(=O)[C@H](Cc1c[nH]c2ccccc12)NC(C)=O | 0.06 |

Mixed results
| Compound | cell line | setting | endpoint | value |
| --- | --- | --- | --- | --- |
| Cn1cc(-c2cccc(CN3CCC4(CC3)COc3c4ccc4c3CN([C@H]3CCC(=O)NC3=O)C4=O)c2)cn1 | Caco-2 | basolateral to apical | Papp | 2.64e-05 cm/s |

Excerpt of the above (sample 3):
| Structure (SMILES) | DON concentration [nmol/mL] |
| --- | --- |
| CC(C)OC(=O)[C@H](CCC(=O)C=[N+]=[N-])NC(=O)[C@H](Cc1c[nH]c2ccccc12)NC(=O)CN1CCN(C)CC1 | 0.03 |
